Values quoted from earlier work, collected from citations in different studies.
Numbers after ± are the reported error. Values after ≈ are worked out from the molar mass of the structure shown.
pyrG: pyrG (Escherichia coli, UniProt P0A7E5)
Sequence of UniProt P0A7E5 (whole entry, looked up): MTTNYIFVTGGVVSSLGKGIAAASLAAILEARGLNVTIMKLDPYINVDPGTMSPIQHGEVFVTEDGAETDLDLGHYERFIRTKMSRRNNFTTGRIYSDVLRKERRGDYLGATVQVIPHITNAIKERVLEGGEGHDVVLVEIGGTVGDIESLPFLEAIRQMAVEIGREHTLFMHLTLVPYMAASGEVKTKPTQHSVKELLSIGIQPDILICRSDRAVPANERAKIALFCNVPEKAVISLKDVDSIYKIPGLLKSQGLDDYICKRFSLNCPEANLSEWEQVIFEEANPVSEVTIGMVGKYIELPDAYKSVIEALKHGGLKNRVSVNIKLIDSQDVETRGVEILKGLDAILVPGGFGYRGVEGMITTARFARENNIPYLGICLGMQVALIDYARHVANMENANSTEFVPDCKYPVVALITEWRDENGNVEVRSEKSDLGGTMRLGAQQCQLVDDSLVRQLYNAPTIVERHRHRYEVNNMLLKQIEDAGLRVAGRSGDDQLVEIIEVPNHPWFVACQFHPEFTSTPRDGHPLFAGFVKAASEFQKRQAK
lasR: Transcriptional activator protein LasR (lasR, Pseudomonas aeruginosa, UniProt P25084)
Sequence of UniProt P25084 (whole entry, looked up): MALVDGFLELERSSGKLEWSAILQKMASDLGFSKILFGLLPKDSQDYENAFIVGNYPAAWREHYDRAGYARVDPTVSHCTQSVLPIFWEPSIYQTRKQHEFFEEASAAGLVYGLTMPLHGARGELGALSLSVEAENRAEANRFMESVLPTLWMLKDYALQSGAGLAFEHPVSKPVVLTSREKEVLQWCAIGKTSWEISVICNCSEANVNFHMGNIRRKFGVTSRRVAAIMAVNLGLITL
Sequence of UniProt Q9UH17 (whole entry, looked up): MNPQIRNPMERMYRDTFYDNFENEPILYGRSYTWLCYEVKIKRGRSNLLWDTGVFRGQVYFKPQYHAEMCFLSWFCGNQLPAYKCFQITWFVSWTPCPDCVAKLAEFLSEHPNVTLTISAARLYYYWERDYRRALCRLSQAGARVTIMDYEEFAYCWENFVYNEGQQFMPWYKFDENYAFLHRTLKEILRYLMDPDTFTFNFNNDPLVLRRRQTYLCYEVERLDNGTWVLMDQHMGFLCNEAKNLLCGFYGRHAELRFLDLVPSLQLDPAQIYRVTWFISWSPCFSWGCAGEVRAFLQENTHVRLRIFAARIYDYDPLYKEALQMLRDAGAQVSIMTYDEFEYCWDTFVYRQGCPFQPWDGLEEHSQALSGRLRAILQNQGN
Sequence of UniProt P06276 (whole entry, looked up): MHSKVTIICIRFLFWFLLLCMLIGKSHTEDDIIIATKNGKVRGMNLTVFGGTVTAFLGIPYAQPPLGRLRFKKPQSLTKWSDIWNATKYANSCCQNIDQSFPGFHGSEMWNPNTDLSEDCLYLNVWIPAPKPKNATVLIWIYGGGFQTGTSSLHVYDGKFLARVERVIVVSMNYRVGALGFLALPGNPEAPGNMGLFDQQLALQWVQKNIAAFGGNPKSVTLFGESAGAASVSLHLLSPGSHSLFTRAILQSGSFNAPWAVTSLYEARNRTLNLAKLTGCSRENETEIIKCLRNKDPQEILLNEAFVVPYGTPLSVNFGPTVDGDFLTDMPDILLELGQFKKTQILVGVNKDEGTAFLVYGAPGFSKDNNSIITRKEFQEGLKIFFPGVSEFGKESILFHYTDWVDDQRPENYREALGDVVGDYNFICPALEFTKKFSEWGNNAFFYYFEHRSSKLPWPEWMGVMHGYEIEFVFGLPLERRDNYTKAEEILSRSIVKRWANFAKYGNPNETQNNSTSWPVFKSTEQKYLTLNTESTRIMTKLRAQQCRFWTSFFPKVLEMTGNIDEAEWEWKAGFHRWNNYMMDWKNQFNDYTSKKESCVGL
Sequence of UniProt P28335 (whole entry, looked up): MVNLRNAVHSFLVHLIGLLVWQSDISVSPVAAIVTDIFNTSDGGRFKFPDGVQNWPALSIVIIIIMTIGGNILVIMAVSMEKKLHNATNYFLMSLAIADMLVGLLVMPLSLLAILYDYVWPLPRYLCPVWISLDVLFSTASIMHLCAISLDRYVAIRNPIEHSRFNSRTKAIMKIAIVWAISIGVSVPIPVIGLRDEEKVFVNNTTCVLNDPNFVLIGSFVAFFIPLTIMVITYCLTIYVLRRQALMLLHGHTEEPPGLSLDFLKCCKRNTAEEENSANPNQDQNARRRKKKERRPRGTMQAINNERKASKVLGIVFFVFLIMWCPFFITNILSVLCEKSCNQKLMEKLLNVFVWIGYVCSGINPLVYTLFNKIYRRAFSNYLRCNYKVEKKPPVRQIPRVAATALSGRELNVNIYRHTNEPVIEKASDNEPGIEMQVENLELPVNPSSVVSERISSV
Sequence of UniProt O43318 (whole entry, looked up): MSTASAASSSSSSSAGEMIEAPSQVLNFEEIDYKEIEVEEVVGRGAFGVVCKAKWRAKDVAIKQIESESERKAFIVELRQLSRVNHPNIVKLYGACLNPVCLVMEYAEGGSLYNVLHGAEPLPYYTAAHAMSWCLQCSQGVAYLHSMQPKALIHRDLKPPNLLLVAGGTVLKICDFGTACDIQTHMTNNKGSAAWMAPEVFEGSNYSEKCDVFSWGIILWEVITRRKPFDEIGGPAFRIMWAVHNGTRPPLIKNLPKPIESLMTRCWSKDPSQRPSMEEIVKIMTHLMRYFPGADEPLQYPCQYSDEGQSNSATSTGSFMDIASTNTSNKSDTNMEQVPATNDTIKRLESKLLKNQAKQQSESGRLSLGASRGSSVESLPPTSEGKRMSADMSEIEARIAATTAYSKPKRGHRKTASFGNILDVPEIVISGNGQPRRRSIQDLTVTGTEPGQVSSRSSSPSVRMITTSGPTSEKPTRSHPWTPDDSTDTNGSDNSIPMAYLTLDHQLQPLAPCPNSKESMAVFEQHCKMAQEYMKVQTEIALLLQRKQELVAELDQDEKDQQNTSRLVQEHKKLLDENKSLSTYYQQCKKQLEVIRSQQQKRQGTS
Sequence of UniProt P22303 (whole entry, looked up): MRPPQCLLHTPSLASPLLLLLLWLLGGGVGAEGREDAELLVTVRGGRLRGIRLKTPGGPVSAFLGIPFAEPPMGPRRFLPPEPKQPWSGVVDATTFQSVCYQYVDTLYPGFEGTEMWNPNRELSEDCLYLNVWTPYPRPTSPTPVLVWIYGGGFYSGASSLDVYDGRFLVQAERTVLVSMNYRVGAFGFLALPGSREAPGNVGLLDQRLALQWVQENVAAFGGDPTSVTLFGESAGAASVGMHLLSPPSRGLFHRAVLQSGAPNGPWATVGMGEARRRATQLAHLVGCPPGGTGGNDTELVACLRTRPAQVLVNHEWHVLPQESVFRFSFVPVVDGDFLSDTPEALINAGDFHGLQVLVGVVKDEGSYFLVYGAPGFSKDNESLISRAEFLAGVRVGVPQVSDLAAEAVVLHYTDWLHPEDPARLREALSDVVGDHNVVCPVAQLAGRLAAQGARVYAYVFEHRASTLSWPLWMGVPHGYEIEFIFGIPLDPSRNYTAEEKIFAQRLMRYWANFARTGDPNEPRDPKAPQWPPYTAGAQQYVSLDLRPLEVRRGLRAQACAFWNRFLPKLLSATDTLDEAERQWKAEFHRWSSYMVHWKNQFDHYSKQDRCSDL
Sequence of UniProt Q9H2X3 (whole entry, looked up): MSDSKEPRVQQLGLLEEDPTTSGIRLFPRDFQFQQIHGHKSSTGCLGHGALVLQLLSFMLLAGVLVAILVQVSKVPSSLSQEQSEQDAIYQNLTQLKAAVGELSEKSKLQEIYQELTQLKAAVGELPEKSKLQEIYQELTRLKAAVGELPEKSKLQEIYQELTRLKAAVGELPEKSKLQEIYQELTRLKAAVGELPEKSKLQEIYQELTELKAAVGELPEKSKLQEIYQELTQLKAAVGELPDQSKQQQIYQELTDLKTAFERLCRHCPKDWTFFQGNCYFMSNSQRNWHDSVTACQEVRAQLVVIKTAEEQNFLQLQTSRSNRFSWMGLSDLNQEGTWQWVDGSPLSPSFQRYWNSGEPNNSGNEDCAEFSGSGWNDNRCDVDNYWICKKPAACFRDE

`NCc1cn([C@@H]2[C@@H](OCCCl)O[C@H](CO)[C@@H](O)[C@@H]2O)nn1` gave an IC50 of 285 ± 21.2 µM (C-type lectin domain family 4 member M, extracellular domain (CLEC4M, Homo sapiens, UniProt Q9H2X3); binding to SARS-CoV-2 spike, inhibitor, surface plasmon resonance; with: spike surface 1766 RU).
`O=C(/C=C/c1ccc(OCc2ccc([N+](=O)[O-])cc2)cc1)NCCc1c[nH]c2ccccc12` gave an IC50 of 34.5 ± 1.71 µM (Acetylcholinesterase (ACHE, Homo sapiens, UniProt P22303)).
With `Nc1ccn(C2OC(COP(=O)(O)OP(=O)(O)OP(=O)(O)O)C(O)C2F)c(=O)n1` (stereo not drawn) the IC50 was 35 µM (pyrG; enzyme activity, inhibitor; wild type, with: UTP 0.05 mM).
`COc1cc(O)c2c(c1)C=CCC(O)C(O)C(=O)CCCC(C)OC2=O` (stereo not drawn) gave an IC50 of 2.6 µM (Mitogen-activated protein kinase kinase kinase 7 (MAP3K7, Homo sapiens, UniProt O43318); enzyme activity, inhibitor).
The IC50 of `CC(=O)OC12COC1CC(O)C1(C)C(=O)C(OC(=O)C3CC3)C3=C(C)C(OC(=O)C(O)C(C=C(C)C)NC(=O)OC(C)(C)C)CC(O)(C(OC(=O)c4cccc(OC(F)F)c4)C21)C3(C)C` (stereo not drawn) is reported as 0.00045 µM (LCC6-WT; cytotoxicity).
The IC50 of `O=C1C=C(Br)/C(=C/Br)O1` is reported as 2 µM (lasR; reporter gene, antagonist, lasB-gfp(ASV) reporter; PAO1).
With `CC[C@H](C)[C@H](NC(=O)[C@H](CC(C)C)NC(=O)[C@H](CCCNC(=N)N)NC(=O)CNC(=O)CNC(=O)[C@H](CCCCN)NC(=O)[C@H](CCCNC(=N)N)NC(=O)[C@H](CC(C)C)NC(=O)[C@H](CC(C)C)NC(=O)[C@H](CCCNC(=N)N)NC(=O)[C@@H](NC(=O)[C@H](CC(C)C)NC(=O)[C@@H](N)CO)[C@@H](C)O)C(=O)NCC(=O)N[C@@H](Cc1c[nH]c2ccccc12)C(=O)N[C@@H](CCCNC(=N)N)C(=O)N[C@@H](Cc1c[nH]c2ccccc12)C(=O)N[C@@H](CCC(=O)O)C(=O)N[C@@H](CCCCN)C(=O)N[C@H](C(=O)N[C@@H](CCCNC(=N)N)C(=O)N[C@@H](CC(N)=O)C(=O)N[C@@H](Cc1c[nH]c2ccccc12)C(=O)N[C@H](C(=O)N[C@@H](CCCNC(=N)N)C(=O)N[C@@H](CCCNC(=N)N)C(=O)N[C@H](C(=O)N[C@H](C(=O)N[C@@H](CCC(=O)O)C(=O)N[C@@H](CCCCN)C(=O)N[C@@H](CCCNC(=N)N)C(=O)N[C@@H](CCCCN)C(=O)N1CCC[C@H]1C(=O)N[C@@H](CC(N)=O)C(=O)N[C@@H](CCCCN)C(=O)O)[C@@H](C)CC)[C@@H](C)CC)[C@@H](C)CC)[C@@H](C)O` the MIC was 0.5 µM (≈ 2.21 µg/mL) (Pseudomonas aeruginosa).
`Cc1noc(C)c1-c1ccc(=O)n(Cc2ccc(C3CO3)c(F)c2)c1` (stereo not drawn) has an IC50 of 0.13 µM (Bromodomain-containing protein 4, BD2 (BRD4, Homo sapiens, UniProt O60885); biochemical; bromodomain 2).
The IC50 of `NC(Cc1cc(O)c(O)cc1O)C(=O)O` (stereo not drawn) is reported as 0.15 µM (DNA dC->dU-editing enzyme APOBEC-3B, C-terminal domain (Homo sapiens, UniProt Q9UH17)).
With `Nc1ccn(C2OC(COP(=O)(O)OP(=O)(O)OP(=O)(O)O)C(O)C2O)c(=O)n1` (stereo not drawn) the IC50 was greater than 1000 µM (pyrG; enzyme activity, inhibitor; wild type, with: UTP 0.20 mM).
`O=C(CCc1ccc(Br)cc1)N[C@H]1CCOC1=O` gave an IC50 of 0.3 µM (lasR; reporter gene, antagonist, lasI-lacZ reporter).
`CCOC(=O)[C@@]12C[C@@H]1[C@@H](n1cnc3c(NC(C4CC4)C4CC4)nc(Cl)nc31)[C@H](O)[C@@H]2O` gave a Ki of 0.03 µM (5-hydroxytryptamine receptor 2C (HTR2C, Homo sapiens, UniProt P28335); binding; with: [3H]mesulergine).
The IC50 of `O=C(CCCCCCCCCN=C=S)CC(=O)N[C@H]1CCOC1=O` is reported as 100 µM (lasR; reporter gene, antagonist, lasI-lacZ reporter; PAO1).
For `CC(C)[C@H](NC(=O)[C@H](CCCNC(=N)N)NC(=O)[C@H](Cc1ccccc1)NC(=O)[C@H](CS)NC(=O)[C@@H](N)Cc1c[nH]c2ccccc12)C(=O)N[C@@H](CS)C(=O)N[C@@H](Cc1ccccc1)C(=O)N[C@@H](CCCCN)C(=O)NCC(=O)N[C@@H](Cc1ccccc1)C(=O)N[C@@H](CS)C(=O)N[C@@H](Cc1ccc(O)cc1)C(=O)N[C@@H](CCCNC(=N)N)C(=O)N[C@@H](Cc1ccccc1)C(=O)N[C@@H](CS)C(=O)O`, the MIC was 32 µM (≈ 62.9 µg/mL) (Pseudomonas aeruginosa).
`Nc1ccn(C2OC(COP(=O)(O)OP(=O)(O)OP(=O)(O)O)C(O)C2(F)F)c(=O)n1` (stereo not drawn) gave an IC50 of 3.9 µM (pyrG; enzyme activity, inhibitor; wild type, with: UTP 0.20 mM).
The IC50 of `Cc1ccc(NC(=O)Cn2cc(COc3ccccc3C=O)nn2)cc1C` is reported as 1.72 µM (Cholinesterase (BCHE, Homo sapiens, UniProt P06276); inhibitor).
The IC50 of `COC(=O)OC1C(=O)C2(C)C(O)CC3OCC3(OC(C)=O)C2C(OC(=O)c2cccc(OC(F)(F)F)c2)C2(O)CC(OC(=O)C(O)C(C=C(C)C)NC(=O)OC(C)(C)C)C(C)=C1C2(C)C` (stereo not drawn) is reported as 0.00085 µM (LCC6-WT; cytotoxicity).
With `CCCCCC(=O)NC(C(=O)NCc1ccc(NC(=N)N)cc1)c1ccc(OCc2ccccc2)cc1` (stereo not drawn) the IC50 was 25 µM (Genome polyprotein, NS2B-NS3 protease (dengue virus type 2, UniProt P29990); protease activity, inhibitor; pH 7.5, with: AMC substrate).

A few entries again:
`Nc1ccn(C2OC(COP(=O)(O)OP(=O)(O)OP(=O)(O)O)C(O)C2(F)F)c(=O)n1` (stereo not drawn) gave an IC50 of 3.9 µM (pyrG; enzyme activity, inhibitor; wild type, with: UTP 0.20 mM).
For `CC(C)[C@H](NC(=O)[C@H](CCCNC(=N)N)NC(=O)[C@H](Cc1ccccc1)NC(=O)[C@H](CS)NC(=O)[C@@H](N)Cc1c[nH]c2ccccc12)C(=O)N[C@@H](CS)C(=O)N[C@@H](Cc1ccccc1)C(=O)N[C@@H](CCCCN)C(=O)NCC(=O)N[C@@H](Cc1ccccc1)C(=O)N[C@@H](CS)C(=O)N[C@@H](Cc1ccc(O)cc1)C(=O)N[C@@H](CCCNC(=N)N)C(=O)N[C@@H](Cc1ccccc1)C(=O)N[C@@H](CS)C(=O)O`, the MIC was 32 µM (≈ 62.9 µg/mL) (Pseudomonas aeruginosa).
The IC50 of `O=C1C=C(Br)/C(=C/Br)O1` is reported as 2 µM (lasR; reporter gene, antagonist, lasB-gfp(ASV) reporter; PAO1).
